Assay results from different studies.
Numbered parts are unrelated; each lists some results of a single study.

Series 1 — method: competition protein-binding microarray; molecule type: double-stranded DNA, one strand shown; matrix: in vitro; tested at: 2 µM; with: Pho4 competitor, 0.05 µM; reading: higher = stronger binding
Target: Centromere-binding protein 1, full length, His-tagged (CBF1, Saccharomyces cerevisiae, UniProt P17106, residues 1-351)
UniProt P17106, sequence (whole entry, looked up): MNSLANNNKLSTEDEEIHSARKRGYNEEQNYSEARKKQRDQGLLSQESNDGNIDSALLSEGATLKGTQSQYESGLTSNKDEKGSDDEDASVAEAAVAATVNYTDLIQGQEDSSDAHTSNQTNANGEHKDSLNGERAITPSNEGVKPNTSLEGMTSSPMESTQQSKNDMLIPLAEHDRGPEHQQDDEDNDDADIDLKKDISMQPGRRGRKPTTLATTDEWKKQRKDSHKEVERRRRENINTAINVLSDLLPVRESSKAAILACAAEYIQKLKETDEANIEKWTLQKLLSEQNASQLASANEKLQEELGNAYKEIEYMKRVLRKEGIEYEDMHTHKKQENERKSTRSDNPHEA
Setting: whole 60-bp probe, lowest competitor level
For `CTTTCCCGATCTTTTCACGTGAAATTAGCACATTTGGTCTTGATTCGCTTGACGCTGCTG`, the fluorescence intensity was 817 a.u.
For `AATGCGGCCCAAAAGCACGTGTGGAAAAAAAGTATGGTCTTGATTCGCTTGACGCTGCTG`, the fluorescence intensity was 1670 a.u.
`TATCTCTATCCTGCGACCGTGATGGTACCGAAAGTAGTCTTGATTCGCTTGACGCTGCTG` has a fluorescence intensity of 68.2 a.u.
`CCGCCCGATATATATCACATGTAGCTGTGTAATATGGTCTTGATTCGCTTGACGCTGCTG` gave a fluorescence intensity of 663 a.u.
The fluorescence intensity of `TGCGCAACAACTTGAACGGTGGGTGTATGTCTAGAAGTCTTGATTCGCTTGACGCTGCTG` is reported as 66.7 a.u.
With `TTGATCCAAGAGCACTCTGTGACGAATTCTCCTCTAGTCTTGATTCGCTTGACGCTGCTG` the fluorescence intensity was 51.8 a.u.
`TGTACAGAAAGAAAATCCGTGATGGTTTAATGGTCAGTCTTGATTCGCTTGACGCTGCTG` has a fluorescence intensity of 85.8 a.u.
With `ATATTATCTTGCGAGCATGTGCGCTCAATTTCGGGGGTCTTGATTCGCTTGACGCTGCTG` the fluorescence intensity was 248 a.u.
For `CATGAATGTGGTACCCACGTTCTGCGTTAGGACTGTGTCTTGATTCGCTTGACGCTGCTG`, the fluorescence intensity was 87.8 a.u.
With `TGGACCCTTGTCCGTCACGTGAGGAAAAATACTATTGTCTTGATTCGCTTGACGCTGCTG` the fluorescence intensity was 6650 a.u.
With `CGGGGTTAAGTTTGACAAGTGGGTGGCTTGCAGCAGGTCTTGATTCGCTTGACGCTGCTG` the fluorescence intensity was 65 a.u.
For `TCGCGTTTCTCCAGCCACGTGCTTTTAACCTAAATAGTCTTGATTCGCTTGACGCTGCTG`, the fluorescence intensity was 2000 a.u.
With `CTTCTGTAAATTTGTCACGGCACTTGACGCGCCCCGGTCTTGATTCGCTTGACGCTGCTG` the fluorescence intensity was 80.5 a.u.
The fluorescence intensity of `GATTTTGGCCGCTGGCACGTGCAGTTTCTATTAACTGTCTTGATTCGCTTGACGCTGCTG` is reported as 2200 a.u.
`TGCGCAACAACTTTTCACGTGTCTTTATGTCTAGAAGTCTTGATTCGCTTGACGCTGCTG` gave a fluorescence intensity of 1010 a.u.
`AGAATGGGCGCTTGTCGCGTGCCAGATCGGGGTTCAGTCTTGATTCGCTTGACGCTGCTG` has a fluorescence intensity of 88.3 a.u.
The fluorescence intensity of `TGGAAGGAAAAACAGCACGCTTGTAAGGGGGATGGGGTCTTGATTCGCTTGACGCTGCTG` is reported as 95.9 a.u.

Series 2 — method: RNA Bind-n-Seq; molecule type: RNA; matrix: in vitro; tested at: 200 nM; setting: whole 134-nt RNA, ends assumed; with: 150 mM LiCl; relative to: input library; reading: higher = stronger binding; library: 7-deaza-guanosine replaces G
Target: Fragile X messenger ribonucleoprotein 1, C-terminal low-complexity region (Fmr1, Mus musculus, UniProt P35922)
`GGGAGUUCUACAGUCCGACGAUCUCCUGUGCUACACAUCGUAUGUACCGAAUCGGAAAAAAAGGUUUUUUUGGAAAAAAAGGAAAGUAUUAUGUUACGCCGUUCGGAUCUGCAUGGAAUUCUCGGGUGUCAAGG` gave a log2 enrichment of -2.27.
The log2 enrichment of `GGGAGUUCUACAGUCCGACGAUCCUCAAGUCCUGUGCUACACAUCGUAUGUACCGAAUCGGUGGUUUUUUUGGUGGAAAGUAUUAUGUUACGCCGUUCGGAUCUGCACUUCCAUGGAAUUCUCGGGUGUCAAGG` is reported as 1.13.
The log2 enrichment of `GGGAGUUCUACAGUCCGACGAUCUCCUGUGCUACACAUCGUAUGUACCGAAUCGGGGAAAAAGGGGUUUUUUUGGGGAGGGGAAAGUAUUAUGUUACGCCGUUCGGAUCUGCAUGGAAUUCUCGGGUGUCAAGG` is reported as -0.955.
For `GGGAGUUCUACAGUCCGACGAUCUGGGAGGUGGAUUUUGGUUAUUUUUUUAGCUCAUUUCCAGGGGUGGGAAUUUUUUUUUAAUAUGUGUCAUGAAUAAAGUUGUUUUUGAAAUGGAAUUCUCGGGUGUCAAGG`, the log2 enrichment was 0.364.
`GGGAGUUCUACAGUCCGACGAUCCUCAAGUCCUGUGCUACACAUCGUAUGUACCGAAUCGGGUUGGGGUUGGUUGGGAAAGUAUUAUGUUACGCCGUUCGGAUCUGCACUUCCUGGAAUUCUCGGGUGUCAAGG` has a log2 enrichment of -0.344.
The log2 enrichment of `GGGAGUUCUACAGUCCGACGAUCGUCCUGUGCUACACAUCGUAUGUACCGAAUCGGGGUGGGGUUUUUGGGGAAAAAGGGGAAAGUAUUAUGUUACGCCGUUCGGAUCUGCACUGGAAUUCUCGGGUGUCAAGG` is reported as -0.193.
`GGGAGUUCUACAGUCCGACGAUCGUCCUGUGCUACACAUCGUAUGUACCGAAUCGGGGUGGGGAAAGGGGAAAAAAAGGGGAAAGUAUUAUGUUACGCCGUUCGGAUCUGCACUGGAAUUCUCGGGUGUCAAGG` has a log2 enrichment of 1.01.
`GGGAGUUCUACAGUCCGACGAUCCUGUGCUACACAUCGUAUGUACCGAAUCGGGCCCCCCCGGGCCCCCCCGGGCCCCCCCGGGGAAAGUAUUAUGUUACGCCGUUCGGAUCUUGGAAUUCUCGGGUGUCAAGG` gave a log2 enrichment of -0.588.

Series 3 — method: protein-binding microarray; molecule type: hairpin DNA; matrix: in vitro; tested at: not given; relative to: not given; reading: higher = stronger binding
Target: Runt-related transcription factor 3, Runt domain (RUNX3, Homo sapiens, UniProt Q13761, residues 53-186)
UniProt Q13761, sequence (53-186, looked up): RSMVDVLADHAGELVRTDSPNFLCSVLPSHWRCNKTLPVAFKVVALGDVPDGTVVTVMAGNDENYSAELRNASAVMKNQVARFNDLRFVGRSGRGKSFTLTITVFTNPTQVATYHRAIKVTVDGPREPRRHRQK
Setting: whole hairpin DNA, median over replicate spots
`GAGGCCTGTCGCGGTTCGCCTCCTGGCGAACCGCGACAGGCCTCACACTC` gave a median fluorescence of 5740 a.u.
`GAGGCCTGTTGTGGTTGGCCTCCTGGCCAACCACAACAGGCCTCACACTC (5mC at 28)` has a median fluorescence of 5760 a.u.
With `GAGGCCTCGCGCGGTTGGCCTCCTGGCCAACCGCGCGAGGCCTCACACTC (5mC at 36)` the median fluorescence was 5480 a.u.
For `CTCAGCGCTGTGGGCTGGACTCCTGTCCAGCCCACAGCGCTGAGACACTC (5mC at 38)`, the median fluorescence was 4370 a.u.
For `GAGGCCTGTTGCGCGTGGCCTCCTGGCCACGCGCAACAGGCCTCACACTC (5mC at 30)`, the median fluorescence was 5190 a.u.
With `GAGGCCTGTTGCGGTTGGCCTCCTGGCCAACCGCAACAGGCCTCACACTC (5mC at 28)` the median fluorescence was 9500 a.u.
`GAGGCCTGTCGCCGTTGGCCTCCTGGCCAACGGCGACAGGCCTCACACTC` gave a median fluorescence of 5200 a.u.
`GAGGCCTGTCGCGGGTGGCCTCCTGGCCACCCGCGACAGGCCTCACACTC (5mC at 30)` gave a median fluorescence of 5460 a.u.
The median fluorescence of `GAGGCCTGTTGCGGCGGGCCTCCTGGCCCGCCGCAACAGGCCTCACACTC` is reported as 5800 a.u.
`GAGGCCCAACGGCAACAGCCTCCTGGCTGTTGCCGTTGGGCCTCACACTC (5mC at 10)` gave a median fluorescence of 5030 a.u.
`GAGGCCTGTCCCGGTTGGCCTCCTGGCCAACCGGGACAGGCCTCACACTC` gave a median fluorescence of 5330 a.u.
`GAGGCCTGTCCGGGTTGGCCTCCTGGCCAACCCGGACAGGCCTCACACTC` has a median fluorescence of 5170 a.u.
With `GAGGCCTGTCGCGGATGGCCTCCTGGCCATCCGCGACAGGCCTCACACTC` the median fluorescence was 4920 a.u.
`CTCAGTTCTGAGGGCTGGACTCCTGTCCAGCCCTCAGAACTGAGACACTC` gave a median fluorescence of 3850 a.u.
`GAGGCCTGTCGCGGTTGGCCTCCTGGCCAACCGCGACAGGCCTCACACTC (5mC at 12 34)` gave a median fluorescence of 6110 a.u.
The median fluorescence of `CTCAGTTGTGTGGGCTGGACTCCTGTCCAGCCCACACAACTGAGACACTC` is reported as 4380 a.u.
For `GAGGCCCAACCGCCGCAGCCTCCTGGCTGCGGCGGTTGGGCCTCACACTC (5mC at 30)`, the median fluorescence was 6850 a.u.
With `GAGGCCCAACCGGAACAGCCTCCTGGCTGTTCCGGTTGGGCCTCACACTC (5mC at 32)` the median fluorescence was 4760 a.u.

Series 4 — method: RNA Bind-n-Seq; molecule type: RNA; matrix: in vitro; tested at: 365 nM; relative to: no-protein control; reading: higher = stronger binding
Target: RNA binding protein fox-1 homolog 2, RRM domain, GST-SBP tag (RBFOX2, Homo sapiens, UniProt O43251-10, residues 100-194)
Setting: natural RNA segment, single round, ends assumed
Construct (chain): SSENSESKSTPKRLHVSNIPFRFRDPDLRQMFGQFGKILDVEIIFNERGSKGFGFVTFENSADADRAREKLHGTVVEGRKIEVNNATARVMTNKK
`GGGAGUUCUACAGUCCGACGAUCGGAUUAUAUUUUUGGGUUUUGUAGAAUAUUGCAAAUUAACCACACAAAAAAUGUUUAAUUUAUGCAACAAGCAUGUUUGUGCAAAUUUCAUGGGACUUUAAAAAGAAUAAUGGAAUUCUCGGGUGCCAA` — result for “RBNS enrichment (R)”: 12.1.
`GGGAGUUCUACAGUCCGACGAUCCACCACUAUGAAACAUUGACUUGCUAUUUCAAAUUCCUGGAUUCUAAGGAAUUUCUCAUCUGACAAUGGAACAGAAAUAGAAGCAUGGCCCCCACAGGCUGGGGACCAGUUGGAAUUCUCGGGUGCCAA`: “RBNS enrichment (R)” 0.662.
`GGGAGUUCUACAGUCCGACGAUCACUGUUGGCUGCUGCCCUCCUUCCCAGUGAAAGGUACAAAGCAAUAAGCAUCAUGCAUCCUCCCCUUACCCCUCCAACACCCCUCUGCCUCUGGCUCAGGUUGCUCAAAGUGGAAUUCUCGGGUGCCAA`: “RBNS enrichment (R)” 1.33.
Under “RBNS enrichment (R)”, `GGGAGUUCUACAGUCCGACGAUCACGCUCUGCUGGUCAGUGGCGGCUGUCCCCUCCCCAGCCCAGCCGCCCAGCCACAUGUGUCUGCCUGACCCGUACACACCAGGGGUUCCGGGGUUGGGAGCUGAACCAUCUGGAAUUCUCGGGUGCCAA` is recorded as 0.404.
`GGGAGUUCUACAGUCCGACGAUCGUGAGAGUGUGCUCCCCCAAGGGAGGCUUCUCUCCAUCAGGAUGGUACUUUGGGGGAACAAAAUAGUCAGGGAUAUUGGUUCCCCUUUGAGGAGGUGCUGCUGUUUGCUUUGGAAUUCUCGGGUGCCAA` — result for “RBNS enrichment (R)”: 0.706.
`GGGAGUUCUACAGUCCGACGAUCUUCCUCUCACAUCAGUGGGAUACAGAAUUCAGUUUCUCCCUUGCCAGGUCCUUGGGAUGGUUGACCCCUGCCUCUGCAGUAGCCUUUUGUGAGUCUGCUAAGGUAGCUCUUGGAAUUCUCGGGUGCCAA`: “RBNS enrichment (R)” 0.28.
`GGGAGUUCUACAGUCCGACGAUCGAGGUCAACAGCAGAACAGAGGCAGGUCAGGGUUGUCCGCUCUGAUUAGCAGAACGACAGCCCCUUCCUCCUCCUCCCUCCUUCCCAUCCCUACUCAUUAGCUCCCUGCUUGGAAUUCUCGGGUGCCAA`: “RBNS enrichment (R)” 0.406.
Under “RBNS enrichment (R)”, `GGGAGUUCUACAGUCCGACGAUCGGAAAGACAUGCCCAAGAGGAAGGAAGUACUGACCAUCGGCUGCCUGUGAGCAGCUUAGCAAGGAGCCCUUGCUCCCUGGGAAAGGCGGUGAACUUGAGUCUAAAGAUGCUGGAAUUCUCGGGUGCCAA` is recorded as 0.511.
`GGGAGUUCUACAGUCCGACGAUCUGAAAGGCACUUUUCAUUCCACUUUAACUUGAUUUUUUAAAUUCCCUUAUUGUCCCUUCCAAAAAAAAGAGAAUCAAAAUUUUACAAAGAAUCAAAGGAAUUCUAGAAAGUGGAAUUCUCGGGUGCCAA`: “RBNS enrichment (R)” 0.6.

A few entries again (series 3):
`GAGGCCCAACGGCAACAGCCTCCTGGCTGTTGCCGTTGGGCCTCACACTC (5mC at 10)` gave a median fluorescence of 5030 a.u.
The median fluorescence of `GAGGCCTGTTGCGGCGGGCCTCCTGGCCCGCCGCAACAGGCCTCACACTC` is reported as 5800 a.u.
`GAGGCCTGTCCGGGTTGGCCTCCTGGCCAACCCGGACAGGCCTCACACTC` has a median fluorescence of 5170 a.u.
`CTCAGTTCTGAGGGCTGGACTCCTGTCCAGCCCTCAGAACTGAGACACTC` gave a median fluorescence of 3850 a.u.
`GAGGCCTGTCGCGGGTGGCCTCCTGGCCACCCGCGACAGGCCTCACACTC (5mC at 30)` gave a median fluorescence of 5460 a.u.
With `GAGGCCTGTTGCGGTTGGCCTCCTGGCCAACCGCAACAGGCCTCACACTC (5mC at 28)` the median fluorescence was 9500 a.u.
With `GAGGCCCAACCGGAACAGCCTCCTGGCTGTTCCGGTTGGGCCTCACACTC (5mC at 32)` the median fluorescence was 4760 a.u.
For `GAGGCCTGTTGCGCGTGGCCTCCTGGCCACGCGCAACAGGCCTCACACTC (5mC at 30)`, the median fluorescence was 5190 a.u.
